{"data": "Results pooled from the literature", "note": "A part holds a random share of what one study measured. Changes are numbered by the printed parent chain.", "chain of UniProt Q04771 (whole entry, looked up)": "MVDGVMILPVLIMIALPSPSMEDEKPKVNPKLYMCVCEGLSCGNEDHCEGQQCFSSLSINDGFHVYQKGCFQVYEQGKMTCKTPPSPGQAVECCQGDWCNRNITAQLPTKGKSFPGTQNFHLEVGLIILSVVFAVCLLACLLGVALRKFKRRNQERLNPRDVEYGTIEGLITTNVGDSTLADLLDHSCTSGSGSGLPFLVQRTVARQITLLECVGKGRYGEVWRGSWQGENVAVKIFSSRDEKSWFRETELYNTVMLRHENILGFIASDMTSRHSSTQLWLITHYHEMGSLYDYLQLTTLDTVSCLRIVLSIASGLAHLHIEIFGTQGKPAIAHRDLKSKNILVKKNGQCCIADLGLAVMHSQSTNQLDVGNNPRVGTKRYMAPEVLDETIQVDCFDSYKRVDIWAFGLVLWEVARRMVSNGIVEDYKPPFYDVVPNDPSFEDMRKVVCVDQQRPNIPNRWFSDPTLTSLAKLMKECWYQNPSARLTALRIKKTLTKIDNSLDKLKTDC"}
{"data": "Sample 1", "target": "Histone acetyltransferase KAT6A, both winged helices, GST fusion (KAT6A, Homo sapiens, UniProt Q92794, residues 1-181)", "method": "protein binding microarray", "form": "double-stranded DNA, one strand shown", "sample": "in vitro", "concentration": "not given", "notes": "8-mer, flanks averaged, mean of 2 arrays, mostly near background", "reference": "not given", "direction": "higher = stronger binding", "Target sequence (chain)": "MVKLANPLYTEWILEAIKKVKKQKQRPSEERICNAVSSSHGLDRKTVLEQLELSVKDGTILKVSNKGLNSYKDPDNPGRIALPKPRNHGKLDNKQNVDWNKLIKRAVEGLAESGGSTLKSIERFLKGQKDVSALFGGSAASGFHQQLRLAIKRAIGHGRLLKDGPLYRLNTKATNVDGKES"}
{"Sequence": "AGCGGGGC", "E-score": 0.218}
{"Sequence": "CATGCCAC", "E-score": -0.0329}
{"Sequence": "GACCGATA", "E-score": 0.0361}
{"Sequence": "ATGATAAG", "E-score": -0.151}
{"Sequence": "CTCGGGGA", "E-score": 0.0984}
{"Sequence": "CCGATATC", "E-score": 0.0643}
{"Sequence": "CTTCGAAG", "E-score": -0.153}
{"Sequence": "GTTACGAA", "E-score": 0.0337}
{"data": "Sample 2", "target": "CCNB2, cyclin fold, Cln2 fusion (human)", "method": "yeast growth competition, sequencing", "sample": "yeast", "notes": "weak parent motif", "reference": "not given", "direction": "higher = stronger binding", "starting sequence": "GMNC docking peptide (human); KNAKRNLSSEFAN; partner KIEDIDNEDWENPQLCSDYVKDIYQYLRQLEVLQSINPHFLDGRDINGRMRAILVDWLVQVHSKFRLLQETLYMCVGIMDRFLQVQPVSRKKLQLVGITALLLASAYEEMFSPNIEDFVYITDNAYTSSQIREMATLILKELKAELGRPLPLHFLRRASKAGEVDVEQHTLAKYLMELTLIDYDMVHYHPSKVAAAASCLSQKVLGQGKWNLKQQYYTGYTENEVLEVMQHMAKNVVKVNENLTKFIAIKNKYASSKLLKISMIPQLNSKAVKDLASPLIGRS"}
{"Variant": "KNAYRNLSSEFAN [K4Y]", "normalised enrichment score": 0.139}
{"Variant": "KNAKRNLSSFFAN [E10F]", "normalised enrichment score": -0.038}
{"Variant": "KNRKRNLSSEFAN [A3R]", "normalised enrichment score": 0.368}
{"Variant": "KWAKRNLSSEFAN [N2W]", "normalised enrichment score": 0.364}
{"Variant": "KPAKRNLSSEFAN [N2P]", "normalised enrichment score": 0.841}
{"Variant": "KNAKRNLSSRFAN [E10R]", "normalised enrichment score": 0.704}
{"Variant": "KNAKRNLHSEFAN [S8H]", "normalised enrichment score": 0.379}
{"Variant": "KNAARNLSSEFAN [K4A]", "normalised enrichment score": 0.266}
{"data": "Single results of other studies"}
{"Substance": "CO[C@H]1CC[C@H](CNc2ccc(S(=O)(=O)NC(=O)c3ccc(N4CCN(CC5=C(c6ccc(Cl)cc6)CC(C)(C)CC5)CC4)cc3Oc3cnc4[nH]ccc4c3)cc2[N+](=O)[O-])CC1", "target or system": "ACVR1 (Homo sapiens, UniProt Q04771)", "test": "cell-free assay, competition with immobilised ligand", "setting": "1 µM", "endpoint": "remaining binding", "result": "84%"}
{"Substance": "PhoQ, residues 284 288 289 292 302 303 SSYNSA", "target or system": "PhoP, residues 12 14 15 18 19 NHFIF (Escherichia coli, UniProt P23836)", "test": "Sort-seq, refers to: YFP reporter", "test system": "E. coli", "setting": "PhoQ-PhoP variant library, together with: 10 µM Mg2+", "how to read": "reference: high Mg2+ state, higher = stronger signaling", "endpoint": "fold induction", "result": 13.3}
{"Substance": "CN(C)C(=O)N1CC[C@H](N=C2Nc3cc(F)ccc3N(CC(F)F)c3ccc(Cl)cc32)C1", "target or system": "colorectal tumour organoids", "setting": "0.1 µM", "how to read": "reference: DMSO", "endpoint": "viability", "result": "114%"}
{"Substance": "c1cc(-c2cnn3cc(-c4ccc(OCCN5CCCCC5)cc4)cnc23)ccn1", "target or system": "SYK (Homo sapiens, UniProt P43405)", "test": "enzyme activity, inhibitor", "setting": "0.5 µM", "how to read": "reference: control", "endpoint": "remaining activity", "result": "87.5%"}
{"note": "Repeated from above (sample 2):"}
{"Variant": "KNAKRNLSSFFAN [E10F]", "normalised enrichment score": -0.038}
{"Variant": "KNRKRNLSSEFAN [A3R]", "normalised enrichment score": 0.368}
{"Variant": "KWAKRNLSSEFAN [N2W]", "normalised enrichment score": 0.364}
